{"data": "Published values collected from several papers", "note": "Every numbered part comes from another study and shows a few of its results, in no order. Values joined by “and” are separate records of one study, mostly repeats; a detail may differ.", "UniProt P10721, sequence (whole entry, unmodified, looked up)": "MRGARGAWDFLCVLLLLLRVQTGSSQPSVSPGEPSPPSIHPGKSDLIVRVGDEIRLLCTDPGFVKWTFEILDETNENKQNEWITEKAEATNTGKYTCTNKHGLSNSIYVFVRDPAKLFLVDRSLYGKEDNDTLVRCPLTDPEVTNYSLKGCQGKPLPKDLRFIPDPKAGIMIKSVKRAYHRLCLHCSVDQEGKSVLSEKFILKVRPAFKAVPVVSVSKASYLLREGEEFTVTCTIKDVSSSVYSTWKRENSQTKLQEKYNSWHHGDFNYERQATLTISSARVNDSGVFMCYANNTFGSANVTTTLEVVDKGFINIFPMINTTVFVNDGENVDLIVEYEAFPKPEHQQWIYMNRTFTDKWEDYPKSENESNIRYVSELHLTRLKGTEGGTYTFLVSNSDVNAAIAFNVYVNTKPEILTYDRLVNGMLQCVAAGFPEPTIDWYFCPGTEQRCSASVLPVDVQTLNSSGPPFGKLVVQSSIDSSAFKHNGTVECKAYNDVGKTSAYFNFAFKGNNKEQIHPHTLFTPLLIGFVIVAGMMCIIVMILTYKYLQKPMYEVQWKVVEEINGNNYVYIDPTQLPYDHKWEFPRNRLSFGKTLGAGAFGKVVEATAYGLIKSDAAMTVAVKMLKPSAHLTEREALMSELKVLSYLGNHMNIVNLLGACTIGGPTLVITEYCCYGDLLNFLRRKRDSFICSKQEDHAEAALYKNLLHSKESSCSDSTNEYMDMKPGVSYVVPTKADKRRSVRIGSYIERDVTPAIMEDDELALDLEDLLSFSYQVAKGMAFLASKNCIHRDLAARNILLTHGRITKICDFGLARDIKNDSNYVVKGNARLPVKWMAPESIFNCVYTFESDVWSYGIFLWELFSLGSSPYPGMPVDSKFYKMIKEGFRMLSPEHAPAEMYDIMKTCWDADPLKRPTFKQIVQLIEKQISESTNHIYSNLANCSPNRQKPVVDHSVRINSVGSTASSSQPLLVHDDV", "UniProt Q13470, sequence (whole entry, looked up)": "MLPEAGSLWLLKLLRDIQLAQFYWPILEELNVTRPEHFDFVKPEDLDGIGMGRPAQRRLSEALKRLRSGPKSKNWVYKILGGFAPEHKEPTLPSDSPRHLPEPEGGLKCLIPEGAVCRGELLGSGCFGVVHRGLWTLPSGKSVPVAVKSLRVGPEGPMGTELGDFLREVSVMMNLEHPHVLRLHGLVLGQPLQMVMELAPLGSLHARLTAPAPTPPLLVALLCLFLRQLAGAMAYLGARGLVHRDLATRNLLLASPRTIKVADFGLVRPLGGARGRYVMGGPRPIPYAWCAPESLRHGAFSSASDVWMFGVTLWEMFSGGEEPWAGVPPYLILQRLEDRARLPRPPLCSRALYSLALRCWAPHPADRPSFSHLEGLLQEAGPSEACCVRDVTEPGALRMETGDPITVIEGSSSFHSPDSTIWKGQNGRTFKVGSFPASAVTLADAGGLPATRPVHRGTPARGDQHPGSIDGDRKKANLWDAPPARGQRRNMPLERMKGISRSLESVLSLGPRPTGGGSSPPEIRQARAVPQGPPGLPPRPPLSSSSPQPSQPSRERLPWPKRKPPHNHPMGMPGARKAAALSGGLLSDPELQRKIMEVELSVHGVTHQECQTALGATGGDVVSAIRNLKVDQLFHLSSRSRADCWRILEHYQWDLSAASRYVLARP", "UniProt P54762, sequence (whole entry, looked up)": "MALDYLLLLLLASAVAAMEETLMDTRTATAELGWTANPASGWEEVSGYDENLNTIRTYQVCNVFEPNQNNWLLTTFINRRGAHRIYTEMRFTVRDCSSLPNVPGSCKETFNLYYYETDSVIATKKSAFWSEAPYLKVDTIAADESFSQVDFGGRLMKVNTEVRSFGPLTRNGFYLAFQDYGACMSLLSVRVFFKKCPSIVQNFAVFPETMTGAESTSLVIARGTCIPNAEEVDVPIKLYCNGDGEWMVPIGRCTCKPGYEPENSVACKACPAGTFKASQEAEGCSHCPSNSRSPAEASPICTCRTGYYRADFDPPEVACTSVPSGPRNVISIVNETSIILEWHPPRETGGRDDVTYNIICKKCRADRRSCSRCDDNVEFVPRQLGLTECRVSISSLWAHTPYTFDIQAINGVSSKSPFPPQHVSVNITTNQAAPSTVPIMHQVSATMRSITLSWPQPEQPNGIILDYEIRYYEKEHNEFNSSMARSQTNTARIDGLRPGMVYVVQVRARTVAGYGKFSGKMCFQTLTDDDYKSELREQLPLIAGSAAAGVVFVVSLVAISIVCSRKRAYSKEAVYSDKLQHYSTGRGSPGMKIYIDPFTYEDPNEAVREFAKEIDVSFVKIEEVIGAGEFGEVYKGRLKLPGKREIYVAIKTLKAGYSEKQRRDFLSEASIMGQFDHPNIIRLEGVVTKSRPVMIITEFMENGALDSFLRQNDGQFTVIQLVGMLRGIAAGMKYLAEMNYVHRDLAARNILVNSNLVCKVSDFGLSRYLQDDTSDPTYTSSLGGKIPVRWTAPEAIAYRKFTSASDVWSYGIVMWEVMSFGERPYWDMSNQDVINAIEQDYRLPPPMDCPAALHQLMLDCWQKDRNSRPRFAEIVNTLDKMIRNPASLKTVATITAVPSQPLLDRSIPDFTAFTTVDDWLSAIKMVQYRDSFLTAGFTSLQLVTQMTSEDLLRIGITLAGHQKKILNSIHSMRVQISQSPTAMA", "UniProt Q08345, sequence (whole entry, looked up)": "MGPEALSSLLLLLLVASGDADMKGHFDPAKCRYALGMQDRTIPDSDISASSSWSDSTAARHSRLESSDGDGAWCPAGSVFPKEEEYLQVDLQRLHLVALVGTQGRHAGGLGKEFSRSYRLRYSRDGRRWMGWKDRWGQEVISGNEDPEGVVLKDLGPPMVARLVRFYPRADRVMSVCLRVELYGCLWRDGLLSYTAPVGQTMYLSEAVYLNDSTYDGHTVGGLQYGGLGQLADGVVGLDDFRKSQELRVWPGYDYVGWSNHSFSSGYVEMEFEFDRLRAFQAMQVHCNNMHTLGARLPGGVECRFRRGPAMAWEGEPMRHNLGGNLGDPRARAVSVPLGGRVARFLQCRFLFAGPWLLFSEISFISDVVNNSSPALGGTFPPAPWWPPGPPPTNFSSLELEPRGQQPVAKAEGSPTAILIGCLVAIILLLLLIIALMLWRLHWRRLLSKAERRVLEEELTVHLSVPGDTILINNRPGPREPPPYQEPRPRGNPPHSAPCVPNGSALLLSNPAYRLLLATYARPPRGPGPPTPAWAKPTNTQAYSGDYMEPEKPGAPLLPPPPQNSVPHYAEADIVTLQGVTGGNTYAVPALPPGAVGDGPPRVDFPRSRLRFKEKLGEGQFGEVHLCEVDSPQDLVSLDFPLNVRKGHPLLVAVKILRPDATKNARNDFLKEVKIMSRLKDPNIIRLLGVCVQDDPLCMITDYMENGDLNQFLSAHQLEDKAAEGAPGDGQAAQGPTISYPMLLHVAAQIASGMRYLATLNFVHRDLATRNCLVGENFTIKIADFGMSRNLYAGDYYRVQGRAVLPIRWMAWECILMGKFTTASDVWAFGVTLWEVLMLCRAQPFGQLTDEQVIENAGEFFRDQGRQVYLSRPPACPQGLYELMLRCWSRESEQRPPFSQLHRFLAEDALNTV", "UniProt P22455, sequence (whole entry, looked up)": "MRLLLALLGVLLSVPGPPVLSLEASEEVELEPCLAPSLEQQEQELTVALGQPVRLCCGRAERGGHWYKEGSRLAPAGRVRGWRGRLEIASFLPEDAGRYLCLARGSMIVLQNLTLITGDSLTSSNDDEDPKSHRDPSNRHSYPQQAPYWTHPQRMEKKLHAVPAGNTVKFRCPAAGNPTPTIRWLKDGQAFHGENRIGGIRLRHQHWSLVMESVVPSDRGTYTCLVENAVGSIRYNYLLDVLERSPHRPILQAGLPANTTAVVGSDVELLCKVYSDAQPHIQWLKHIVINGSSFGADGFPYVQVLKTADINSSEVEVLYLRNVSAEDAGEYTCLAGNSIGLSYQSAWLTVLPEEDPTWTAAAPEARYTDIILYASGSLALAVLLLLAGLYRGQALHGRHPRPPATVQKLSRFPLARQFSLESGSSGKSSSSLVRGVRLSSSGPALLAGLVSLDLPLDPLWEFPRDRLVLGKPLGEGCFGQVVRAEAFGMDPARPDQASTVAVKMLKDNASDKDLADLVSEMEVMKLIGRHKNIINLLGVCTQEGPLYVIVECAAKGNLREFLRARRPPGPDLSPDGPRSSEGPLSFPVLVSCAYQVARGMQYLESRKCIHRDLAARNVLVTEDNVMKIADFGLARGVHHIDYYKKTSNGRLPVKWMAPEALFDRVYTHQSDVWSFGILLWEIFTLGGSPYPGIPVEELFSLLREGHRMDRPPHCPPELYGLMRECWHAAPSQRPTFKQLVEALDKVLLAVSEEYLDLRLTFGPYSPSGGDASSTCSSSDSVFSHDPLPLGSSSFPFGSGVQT", "UniProt P51812, sequence (whole entry, looked up)": "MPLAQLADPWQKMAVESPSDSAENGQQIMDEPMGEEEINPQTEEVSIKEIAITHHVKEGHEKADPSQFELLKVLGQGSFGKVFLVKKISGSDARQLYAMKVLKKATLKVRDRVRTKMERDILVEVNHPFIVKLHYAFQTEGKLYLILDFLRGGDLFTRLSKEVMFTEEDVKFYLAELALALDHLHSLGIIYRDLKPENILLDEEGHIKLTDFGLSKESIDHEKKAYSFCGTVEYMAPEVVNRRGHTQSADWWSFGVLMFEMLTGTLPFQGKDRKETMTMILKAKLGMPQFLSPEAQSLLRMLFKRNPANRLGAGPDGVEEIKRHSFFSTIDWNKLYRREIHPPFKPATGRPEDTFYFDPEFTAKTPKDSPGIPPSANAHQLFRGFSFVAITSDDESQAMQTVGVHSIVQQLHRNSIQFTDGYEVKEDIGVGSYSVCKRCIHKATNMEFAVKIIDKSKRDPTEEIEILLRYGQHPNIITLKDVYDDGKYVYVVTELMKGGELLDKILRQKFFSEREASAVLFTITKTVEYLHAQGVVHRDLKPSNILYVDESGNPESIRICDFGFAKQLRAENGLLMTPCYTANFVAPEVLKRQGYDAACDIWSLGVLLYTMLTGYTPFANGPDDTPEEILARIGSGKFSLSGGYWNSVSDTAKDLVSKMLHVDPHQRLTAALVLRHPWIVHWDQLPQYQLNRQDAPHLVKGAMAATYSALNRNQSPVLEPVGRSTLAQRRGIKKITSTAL"}
{"data": "Sample 1", "SMILES": "CC(=O)C1=C(C)N(c2cccc(C(F)(F)F)c2)C(=O)N[C@@H]1c1ccc(C#N)nc1", "observed": "cell-free assay", "method": "competition with immobilised ligand", "tested at": "1 µM"}
{"target": "Mast/stem cell growth factor receptor Kit (KIT, Homo sapiens, UniProt P10721, A829P)", "remaining binding [%]": 80.8}
{"target": "Tyrosine-protein kinase ABL1, phosphorylated (ABL1, Homo sapiens, UniProt P00519, M351T)", "remaining binding [%]": 100}
{"target": "Serine/threonine-protein kinase LATS2 (LATS2, Homo sapiens, UniProt Q9NRM7)", "remaining binding [%]": 100}
{"target": "Phosphatidylinositol 4-phosphate 3-kinase C2 domain-containing subunit beta (PIK3C2B, Homo sapiens, UniProt O00750)", "remaining binding [%]": 100}
{"target": "Ribosomal protein S6 kinase alpha-3, N-terminal kinase domain (RPS6KA3, Homo sapiens, UniProt P51812)", "remaining binding [%]": 100}
{"target": "Dual specificity mitogen-activated protein kinase kinase 7 (MAP2K7, Homo sapiens, UniProt O14733)", "remaining binding [%]": 100}
{"target": "Fibroblast growth factor receptor 4 (FGFR4, Homo sapiens, UniProt P22455)", "remaining binding [%]": 100}
{"target": "Non-receptor tyrosine-protein kinase TNK1 (TNK1, Homo sapiens, UniProt Q13470)", "remaining binding [%]": 62.1}
{"target": "SNF-related serine/threonine-protein kinase (SNRK, Homo sapiens, UniProt Q9NRH2)", "remaining binding [%]": 100}
{"target": "Mast/stem cell growth factor receptor Kit (KIT, Homo sapiens, UniProt P10721)", "remaining binding [%]": 96.9}
{"target": "BDNF/NT-3 growth factors receptor (NTRK2, Homo sapiens, UniProt Q16620)", "remaining binding [%]": 98.1}
{"target": "Epithelial discoidin domain-containing receptor 1 (DDR1, Homo sapiens, UniProt Q08345)", "remaining binding [%]": 71.5}
{"target": "Serine/threonine-protein kinase BRSK1 (BRSK1, Homo sapiens, UniProt Q8TDC3)", "remaining binding [%]": 100}
{"target": "Dual specificity protein kinase CLK4 (CLK4, Homo sapiens, UniProt Q9HAZ1)", "remaining binding [%]": 88.3}
{"target": "Cyclin-dependent kinase-like 5 (CDKL5, Homo sapiens, UniProt O76039)", "remaining binding [%]": 100}
{"target": "Mast/stem cell growth factor receptor Kit (KIT, Homo sapiens, UniProt P10721, D816V)", "remaining binding [%]": 100}
{"target": "Ephrin type-B receptor 1 (EPHB1, Homo sapiens, UniProt P54762)", "remaining binding [%]": 100}
{"target": "Serine/threonine-protein kinase TAO1 (TAOK1, Homo sapiens, UniProt Q7L7X3)", "remaining binding [%]": 100}
{"target": "Mast/stem cell growth factor receptor Kit (KIT, Homo sapiens, UniProt P10721, L576P)", "remaining binding [%]": 100}
{"data": "Sample 2", "Structure (SMILES)": "CO[C@@H]1[C@@H](OC(N)=O)[C@@H](O)[C@H](Oc2ccc3c(O)c(NC(=O)c4ccc(O)c(CC=C(C)C)c4)c(=O)oc3c2C)OC1(C)C", "species": "FVB/129P2 mice, Brca1-/- Trp53-/- TNBC allograft", "route": "intraperitoneal", "dose": "100 mg/kg twice daily"}
{"time": "17 days", "tumour volume": "385 mm3 and 637 mm3 and 904 mm3 and 157 mm3 and 1920 mm3"}
{"time": "19 days", "tumour volume": "527 mm3 and 964 mm3 and 600 mm3 and 167 mm3 and 2420 mm3"}
{"time": "15 days", "tumour volume": "1510 mm3 and 164 mm3 and 660 mm3 and 852 mm3 and 434 mm3"}
{"time": "21 days", "tumour volume": "643 mm3 and 174 mm3 and 1030 mm3 and 691 mm3"}
{"time": "9 days", "tumour volume": "2210 mm3 and 143 mm3 and 956 mm3 and 226 mm3 and 785 mm3 and 955 mm3 and 1820 mm3"}
{"time": "23 days", "tumour volume": "174 mm3 and 1350 mm3 and 1250 mm3 and 378 mm3"}
{"time": "3 days", "tumour volume": "493 mm3 and 744 mm3 and 239 mm3 and 338 mm3 and 140 mm3 and 157 mm3 and 229 mm3"}
{"time": "41 days", "tumour volume": "1140 mm3"}
{"data": "Sample 3", "target": "Mitogen-activated protein kinase kinase kinase 2 (MAP3K2, Homo sapiens, UniProt Q9Y2U5)", "observed": "enzyme activity", "mode": "inhibitor", "tested at": "0.5 µM", "reference": "control", "Construct (Q9Y2U5 1-619)": "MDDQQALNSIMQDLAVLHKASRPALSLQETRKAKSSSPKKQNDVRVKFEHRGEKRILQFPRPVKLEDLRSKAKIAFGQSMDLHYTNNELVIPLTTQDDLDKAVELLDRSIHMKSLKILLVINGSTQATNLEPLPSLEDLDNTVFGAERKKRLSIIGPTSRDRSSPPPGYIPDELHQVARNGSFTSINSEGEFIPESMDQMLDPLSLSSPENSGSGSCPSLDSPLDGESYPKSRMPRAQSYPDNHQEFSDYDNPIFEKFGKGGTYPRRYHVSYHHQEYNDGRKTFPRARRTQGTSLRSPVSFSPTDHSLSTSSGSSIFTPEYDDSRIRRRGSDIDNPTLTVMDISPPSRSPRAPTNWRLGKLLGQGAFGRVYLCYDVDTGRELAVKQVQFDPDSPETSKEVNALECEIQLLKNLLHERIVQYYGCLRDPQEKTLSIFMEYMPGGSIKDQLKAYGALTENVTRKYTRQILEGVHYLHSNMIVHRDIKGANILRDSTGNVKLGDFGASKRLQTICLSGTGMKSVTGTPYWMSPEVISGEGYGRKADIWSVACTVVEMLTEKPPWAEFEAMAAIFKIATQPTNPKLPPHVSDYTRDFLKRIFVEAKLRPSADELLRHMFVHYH"}
{"SMILES": "CCN(CC)CCNC(=O)c1c(C)[nH]c(/C=C2\\C(=O)Nc3ccc(Cl)cc32)c1C", "remaining activity [%]": 20.1}
{"SMILES": "C[C@@H]1CCN(C(=O)CC#N)C[C@@H]1N(C)c1ncnc2[nH]ccc12", "remaining activity [%]": 123}
{"SMILES": "c1ccc(-c2[nH]ncc2-c2ccnc3ccccc23)nc1", "remaining activity [%]": 91.2}
{"SMILES": "COc1cc2ncnc(Nc3cccc(Cl)c3)c2cc1OC", "remaining activity [%]": 98.2}
{"SMILES": "Cc1nc2cc3nc(-c4cccs4)cnc3cc2n1C", "remaining activity [%]": 90.2}
{"SMILES": "N#C/C(=C\\c1ccc(O)c(O)c1)C(=O)NCc1ccccc1", "remaining activity [%]": 99.8}
{"SMILES": "N#Cc1c(NC(=O)c2cccc3ccccc23)sc2c1CCCC2", "remaining activity [%]": 84}
{"SMILES": "CN([C@@H](Cc1ccc(OS(=O)(=O)c2cccc3cnccc23)cc1)C(=O)N1CCN(c2ccccc2)CC1)S(=O)(=O)c1cccc2cnccc12", "remaining activity [%]": 98.9}
{"SMILES": "Cc1cc2ncc(-c3ccccc3)nc2cc1C", "remaining activity [%]": 105}
{"SMILES": "Nc1cccc(-c2cc3c(Oc4cccc(O)c4)ncnc3[nH]2)c1", "remaining activity [%]": 86.9}
{"SMILES": "COc1cc2ncnc(Nc3ccc(O)c(Br)c3)c2cc1OC", "remaining activity [%]": 92.4}
{"SMILES": "O=c1cc(-c2cccc3c2Sc2ccccc2S3)oc(N2CCOCC2)c1", "remaining activity [%]": 92.7}
{"SMILES": "CN(C)C[C@H]1CCn2c(c(C3=C(c4cn(C)c5ccccc45)C(=O)NC3=O)c3ccccc32)C1", "remaining activity [%]": 94.6}
{"SMILES": "Cn1nc2c3c(cccc31)C(=O)c1ccccc1-2", "remaining activity [%]": 103}
{"SMILES": "O=C(NC(NC(=S)Nc1ccc(F)c([N+](=O)[O-])c1)C(Cl)(Cl)Cl)C(c1ccccc1)c1ccccc1 (stereo not shown)", "remaining activity [%]": 96.8}
{"SMILES": "O=C1C(Cl)=C(N2C(=O)CCC2=O)C(=O)c2ccccc21", "remaining activity [%]": 108}
{"SMILES": "Ic1cccc(CSc2nnc(-c3ccncc3)o2)c1", "remaining activity [%]": 106}
{"SMILES": "CCOc1nc(NC(=O)Cc2cc(OC)ccc2OC)cc(N)c1C#N", "remaining activity [%]": 92.5}
{"SMILES": "CCN(CC)C(=O)c1ccc(Nc2nc(OCC3CCCCC3)c3[nH]cnc3n2)cc1", "remaining activity [%]": 25.3}
{"SMILES": "O=C1c2ccccc2-c2n[nH]c3cccc1c23", "remaining activity [%]": 100}
{"SMILES": "c1ccc(-c2cnc(Nc3ccc(OCCN4CCCC4)cc3)s2)cc1", "remaining activity [%]": 104}
{"SMILES": "Cc1cn(-c2cc(NC(=O)c3ccc(C)c(Nc4nccc(-c5cccnc5)n4)c3)cc(C(F)(F)F)c2)cn1", "remaining activity [%]": 124}
{"SMILES": "O=C(Nc1cccc(Nc2nccc(Nc3cccc(C(F)(F)F)c3)n2)c1)C1CC1", "remaining activity [%]": 91.6}
{"SMILES": "COc1cc2c(cc1OC)-c1[nH]nc(Nc3cccc(F)c3)c1C2", "remaining activity [%]": 84.5}
{"data": "Single results of other studies"}
{"SMILES": "C=C(F)C(=O)N1CCN(c2nc(OC[C@@H]3CCCN3C)nc3c2CCN(c2cccc4cccc(Cl)c24)C3)C[C@@H]1CC#N", "target": "GTPase HRas (HRAS, Homo sapiens, UniProt P01112, G12V)", "test": "binding, NanoBRET", "system": "HEK293 (live)", "setting": "0.3468 µM", "how to read": "lower = stronger binding", "measurement": "target engagement", "value": "107% and 104% and 106% and 111%"}
{"note": "Some of these lines once more (sample 1):"}
{"target": "Phosphatidylinositol 4-phosphate 3-kinase C2 domain-containing subunit beta (PIK3C2B, Homo sapiens, UniProt O00750)", "remaining binding [%]": 100}
{"target": "Ribosomal protein S6 kinase alpha-3, N-terminal kinase domain (RPS6KA3, Homo sapiens, UniProt P51812)", "remaining binding [%]": 100}
{"target": "Dual specificity mitogen-activated protein kinase kinase 7 (MAP2K7, Homo sapiens, UniProt O14733)", "remaining binding [%]": 100}
{"target": "Fibroblast growth factor receptor 4 (FGFR4, Homo sapiens, UniProt P22455)", "remaining binding [%]": 100}
{"target": "Non-receptor tyrosine-protein kinase TNK1 (TNK1, Homo sapiens, UniProt Q13470)", "remaining binding [%]": 62.1}
{"target": "SNF-related serine/threonine-protein kinase (SNRK, Homo sapiens, UniProt Q9NRH2)", "remaining binding [%]": 100}
{"target": "Mast/stem cell growth factor receptor Kit (KIT, Homo sapiens, UniProt P10721)", "remaining binding [%]": 96.9}
{"target": "BDNF/NT-3 growth factors receptor (NTRK2, Homo sapiens, UniProt Q16620)", "remaining binding [%]": 98.1}
{"target": "Epithelial discoidin domain-containing receptor 1 (DDR1, Homo sapiens, UniProt Q08345)", "remaining binding [%]": 71.5}
